Results from different studies.
Lines come from different studies, so protocols differ.
SALL4 full length isoform A: Sal-like protein 4, full length isoform A (SALL4, Homo sapiens, UniProt Q9UJQ4, residues 1-1053)
UniProt Q9UJQ4, sequence (whole entry, looked up): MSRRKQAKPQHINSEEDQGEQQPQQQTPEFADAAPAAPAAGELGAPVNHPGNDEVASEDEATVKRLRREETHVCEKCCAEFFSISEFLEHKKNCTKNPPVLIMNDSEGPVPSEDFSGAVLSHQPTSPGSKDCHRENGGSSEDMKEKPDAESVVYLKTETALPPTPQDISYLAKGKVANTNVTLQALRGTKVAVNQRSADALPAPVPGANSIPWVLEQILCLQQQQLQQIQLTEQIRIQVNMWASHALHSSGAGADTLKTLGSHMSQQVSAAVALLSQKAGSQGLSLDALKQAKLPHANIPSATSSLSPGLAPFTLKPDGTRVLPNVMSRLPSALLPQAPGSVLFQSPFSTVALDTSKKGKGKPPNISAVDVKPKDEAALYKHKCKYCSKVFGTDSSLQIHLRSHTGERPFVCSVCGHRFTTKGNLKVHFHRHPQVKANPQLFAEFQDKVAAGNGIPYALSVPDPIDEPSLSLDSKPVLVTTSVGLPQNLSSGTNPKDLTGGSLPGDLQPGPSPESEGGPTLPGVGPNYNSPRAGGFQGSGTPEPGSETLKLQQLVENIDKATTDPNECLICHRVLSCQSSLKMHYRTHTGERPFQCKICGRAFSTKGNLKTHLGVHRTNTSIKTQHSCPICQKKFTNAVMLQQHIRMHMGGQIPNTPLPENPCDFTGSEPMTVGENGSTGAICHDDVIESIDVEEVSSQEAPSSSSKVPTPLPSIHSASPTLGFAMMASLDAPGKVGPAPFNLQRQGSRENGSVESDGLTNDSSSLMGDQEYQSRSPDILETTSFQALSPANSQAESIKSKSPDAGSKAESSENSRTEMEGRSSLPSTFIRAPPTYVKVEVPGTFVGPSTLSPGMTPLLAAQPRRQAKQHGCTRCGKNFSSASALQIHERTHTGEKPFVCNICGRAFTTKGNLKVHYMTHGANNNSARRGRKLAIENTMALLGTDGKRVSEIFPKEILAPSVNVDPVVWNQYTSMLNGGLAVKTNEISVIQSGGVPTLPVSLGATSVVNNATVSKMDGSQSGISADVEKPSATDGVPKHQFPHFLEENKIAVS

`CAGGAAA` gave a 7-mer Z-score of 0.653 (PABPC1L2, full length, GST fusion (mouse, UniProt A0ABA7IW68); RNAcompete; RNA, in vitro; 20 nM, 7-mer, probes averaged, single round; relative to: mean of 7-mers, higher = stronger binding).
With `ACCAAATG` the E-score was -0.0187 (SALL4 full length isoform A; universal PBM; double-stranded DNA, one strand shown, in vitro; 600 nM, 8-mer, flanks averaged, mean of replicates; higher = stronger binding).
`GCCTAGCACTTAGGTCTCCTCCTGCTTTAGTGCTAGGTCTTGATTCGCTTGACGCTGCTG` — result for “fitted relative affinity”: 0.256 z-score (Interferon regulatory factor 5, full length, phosphomimetic (IRF5, Homo sapiens, UniProt Q13568-2, residues 1-514, S451D/S453D/S456D/S462D); protein-binding microarray; double-stranded DNA, one strand shown, in vitro; 940 nM top, 60-bp whole probe, added: salmon DNA 0.4 mg/ml; relative to: random background probes, higher = stronger binding).
`AGCCGTAC` has an E-score of -0.115 (SALL4 full length isoform A; universal PBM; double-stranded DNA, one strand shown, in vitro; 600 nM, 8-mer, flanks averaged, mean of replicates; higher = stronger binding).
For `GTCATGAA`, the E-score was -0.0332 (Histone acetyltransferase KAT6A, both winged helices, GST fusion (KAT6A, Homo sapiens, UniProt Q92794, residues 1-181); protein binding microarray; double-stranded DNA, one strand shown, in vitro; not given, 8-mer, flanks averaged, mean of 2 arrays, mostly near background; relative to: not given, higher = stronger binding).
`PhoQ, residues 284 288 289 292 302 303 SLKLQV` gave a fold induction of 13 (PhoP, residues 12 14 15 18 19 TTLRV (Escherichia coli, UniProt P23836); Sort-seq, refers to: YFP reporter; E. coli; PhoQ-PhoP variant library, added: 10 µM Mg2+; relative to: high Mg2+ state, higher = stronger signaling).
For `GCCTAGCACTACTGGACTGGGGTTTCCCGGTGCTAGGTCTTGATTCGCTTGACGCTGCTG`, the log fluorescence was -0.327 z-score (Interferon regulatory factor 5, full length, phosphomimetic (IRF5, Homo sapiens, UniProt Q13568-2, residues 1-514, K96S/S451D/S453D/S456D/S462D); protein-binding microarray; double-stranded DNA, one strand shown, in vitro; 250 nM, 60-bp whole probe, added: salmon DNA 0.4 mg/ml; relative to: random background probes, higher = stronger binding).
Under “RBNS enrichment (R)”, `GGGAGUUCUACAGUCCGACGAUCACAGAAGCCUGGCCCCAGAGACCUAAGACCUGUAUUGUGCAUUGUUUCCUAACUGCAUGUGAUAGACUUGGACAUUUGGAGAAUAUUUUGUACAUGAAUGAUUCAAAAUCUGGAAUUCUCGGGUGCCAA` is recorded as 48.7 (RNA binding protein fox-1 homolog 2, RRM domain, GST-SBP tag (RBFOX2, Homo sapiens, UniProt O43251-10, residues 100-194); RNA Bind-n-Seq; RNA, in vitro; 365 nM, natural RNA segment, single round, ends assumed; relative to: no-protein control, higher = stronger binding).

For quick reference, copied from above:
For `GCCTAGCACTACTGGACTGGGGTTTCCCGGTGCTAGGTCTTGATTCGCTTGACGCTGCTG`, the log fluorescence was -0.327 z-score (Interferon regulatory factor 5, full length, phosphomimetic (IRF5, Homo sapiens, UniProt Q13568-2, residues 1-514, K96S/S451D/S453D/S456D/S462D); protein-binding microarray; double-stranded DNA, one strand shown, in vitro; 250 nM, 60-bp whole probe, added: salmon DNA 0.4 mg/ml; relative to: random background probes, higher = stronger binding).
